Assay results collected from several papers.
A part holds a random share of what one study measured.

Set 1
Target: Transcriptional repressor CTCF (CTCF, Homo sapiens, UniProt P49711, residues 1-727, full length assumed)
Method: protein-binding microarray
Molecule type: double-stranded DNA, one strand shown
Medium: in vitro
Concentration: not given
Notes: k-mer, scored over probes, only values ≥0.25
Reading: higher = stronger binding
Residues (chain): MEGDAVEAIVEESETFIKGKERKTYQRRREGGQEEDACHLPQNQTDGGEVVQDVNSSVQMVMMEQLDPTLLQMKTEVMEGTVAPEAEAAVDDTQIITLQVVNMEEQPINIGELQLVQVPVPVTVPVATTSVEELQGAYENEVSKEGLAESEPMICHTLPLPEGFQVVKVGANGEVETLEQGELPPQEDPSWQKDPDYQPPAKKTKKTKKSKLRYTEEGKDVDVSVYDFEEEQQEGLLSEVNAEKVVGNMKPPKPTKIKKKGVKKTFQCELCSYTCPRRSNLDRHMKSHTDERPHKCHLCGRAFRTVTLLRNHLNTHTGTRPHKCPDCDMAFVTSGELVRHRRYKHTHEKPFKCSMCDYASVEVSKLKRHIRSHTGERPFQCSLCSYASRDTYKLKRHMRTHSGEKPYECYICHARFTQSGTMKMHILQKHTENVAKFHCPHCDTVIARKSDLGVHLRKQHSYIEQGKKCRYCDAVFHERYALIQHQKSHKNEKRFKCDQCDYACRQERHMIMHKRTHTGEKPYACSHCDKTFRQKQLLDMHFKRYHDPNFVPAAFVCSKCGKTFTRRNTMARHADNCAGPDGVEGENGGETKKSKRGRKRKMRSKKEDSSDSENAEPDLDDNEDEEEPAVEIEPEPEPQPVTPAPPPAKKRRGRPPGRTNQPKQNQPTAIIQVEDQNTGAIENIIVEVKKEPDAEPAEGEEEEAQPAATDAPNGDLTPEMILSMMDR
For `ATTTTATA`, the E-score was 0.329.
`TAATACTA` has an E-score of 0.327.
For `AAAGTATA`, the E-score was 0.283.
For `CATCATAC`, the E-score was 0.269.
`AATTTTGT` gave an E-score of 0.277.
With `AATAGCGC` the E-score was 0.349.

Set 2
Target: Sal-like protein 4, full length isoform B (SALL4, Homo sapiens, UniProt Q9UJQ4-2, residues 1-616)
Method: universal PBM
Molecule type: double-stranded DNA, one strand shown
Medium: in vitro
Concentration: not given
Notes: 8-mer, flanks averaged, mean of replicates
Reading: higher = stronger binding
With `ATCATCCC` the E-score was 0.147.
With `GAATATCA` the E-score was 0.228.
`AGTATCAG` has an E-score of -0.01.
The E-score of `ACCTCTGA` is reported as -0.118.
With `AGGCGAAC` the E-score was -0.169.

Set 3
Target: Histone acetyltransferase KAT6A, both winged helices, GST fusion (KAT6A, Homo sapiens, UniProt Q92794, residues 1-181)
Method: protein binding microarray
Molecule type: double-stranded DNA, one strand shown
Medium: in vitro
Concentration: not given
Notes: 8-mer, flanks averaged, mean of 2 arrays, mostly near background
Reference: not given
Reading: higher = stronger binding
Target sequence (chain): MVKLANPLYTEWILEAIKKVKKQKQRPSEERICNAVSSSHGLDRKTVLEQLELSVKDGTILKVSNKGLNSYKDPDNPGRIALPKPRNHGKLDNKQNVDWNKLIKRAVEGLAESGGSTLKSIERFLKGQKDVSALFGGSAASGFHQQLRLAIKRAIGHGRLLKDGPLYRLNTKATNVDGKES
With `CTGTAATA` the E-score was 0.0633.
`CGACATCG` has an E-score of 0.129.
`CGAACAAA` gave an E-score of 0.153.
`AGGACAAT` gave an E-score of -0.187.
`ATAGGCAC` gave an E-score of -0.092.
`AGAAGTCC` gave an E-score of -0.0742.

Other studies, line by line
`PhoQ, residues 284 288 289 292 302 303 TNSAEL` gave a fold induction of 6.81 (PhoP, residues 12 14 15 18 19 QYCSL (Escherichia coli, UniProt P23836); Sort-seq, item: YFP reporter; E. coli; PhoQ-PhoP variant library, together with: 10 µM Mg2+; reference: high Mg2+ state, higher = stronger signaling).
